Measurements of several laboratories.
Numbered parts are unrelated; each lists some results of a single study.

Set 1
Target: Hepatocyte nuclear factor 3-alpha (Foxa1, Mus musculus, UniProt P35582, residues 1-468, full length assumed)
Technique: EMSA with sequencing
Form: double-stranded DNA, one strand shown
Matrix: in vitro
Concentration: 10 and 20 nM
Setting: whole designed probe, mean of two concentrations, ends assumed
Reference: negative control set to 0
Reading: higher = stronger binding
Residues (chain): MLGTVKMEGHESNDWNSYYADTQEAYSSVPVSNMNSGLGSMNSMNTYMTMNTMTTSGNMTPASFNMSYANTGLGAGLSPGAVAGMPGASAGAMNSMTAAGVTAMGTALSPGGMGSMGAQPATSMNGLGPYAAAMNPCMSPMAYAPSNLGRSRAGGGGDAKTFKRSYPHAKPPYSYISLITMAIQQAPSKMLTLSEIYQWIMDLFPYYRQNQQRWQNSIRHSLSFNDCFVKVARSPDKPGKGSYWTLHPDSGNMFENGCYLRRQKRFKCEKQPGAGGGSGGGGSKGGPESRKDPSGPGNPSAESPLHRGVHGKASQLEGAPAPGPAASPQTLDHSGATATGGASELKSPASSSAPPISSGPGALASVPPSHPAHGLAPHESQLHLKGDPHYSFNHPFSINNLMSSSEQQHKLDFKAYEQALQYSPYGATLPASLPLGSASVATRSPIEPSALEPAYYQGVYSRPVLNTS
`GTGAGCGGTGCCCATTGATGGGGAACATCTTCCCCCTCTTCCTTGCCCCACCAGCTCACCTTCCCGGGTTATTTGCAGATAGGAAAATAAATAAAGCCGGCATTCGTTAACCCTCTTCTGGCGCAAACTGCTGTTTGCTCTGGATGAATCATGGTCCTTTGGCGACGCCAGGCTCCGAGGCGAAGAAGCACCGTGTCAGGGCCATGATCCGGGGTGGCCTTTCACTGGGATCGTGGGGAC` — result for “normalised bound fraction”: 0.331 ratio.
`GTGAGCGGTGCCCATTGATGGGGAACTGCCCAGCCTCTTTTCTCCATACAAGTTATTTATTGAAGTATGAATGAATGATGATTGGTGTTTCAATGAGCACTCTTATGGGCCACTGCCTAAGTAAACATCAAGAAGTCTCTGTACCAGATGCAGACTTAGTGGAACAAGTCCAGTTTTGAATGCATGAAGAAAGTGGTTTGGGAGAAGTAAAGTTTAGGCTTTCACTGGGATCGTGGGGAC`: “normalised bound fraction” 0.454 ratio.
For `GTGAGCGGTGCCCATTGATGGGGAACCAACCAAGCAGTATTAGAGCAATTTAGCAAATTCCTCAGTTGAGAGTTAATCTTGCAAACATCCTGCTGTAGGGAAAGGTCATGGCCTGATCTGTAATCTCGGGAAGAGAGCCATTGGACTTGGGAATCAGATGCAGCCTCACACGGCTGCAGACCGCAAGACTCATCCTAGACACAGCTTATGTCACTGTGATTTCACTGGGATCGTGGGGAC`, “normalised bound fraction” read -0.0519 ratio.
`GTGAGCGGTGCCCATTGATGGGGAACATCTTCCCCCTCTTCCTTGCCCCACCAGCTCACCTTCCCGGGTCAAAGTAAACAAGTGTTTACTTTGAAGCCGGCATTCGTTAACCCTCTTCACGCGCATACTGCCAGAGCAAACAGATGAATCATGGTCCTTTGGCGACGCCAGGCTCCGGGAGAGCAAAGCACCGTGTCAGGGCCATGATCCGGGGTGGCCTTTCACTGGGATCGTGGGGAC`: “normalised bound fraction” 0.463 ratio.

Set 2
Target: Histone acetyltransferase KAT6A, winged helix 2, GST fusion (KAT6A, Homo sapiens, UniProt Q92794, residues 85-181)
Technique: protein binding microarray
Form: double-stranded DNA, one strand shown
Matrix: in vitro
Concentration: not given
Setting: 8-mer, flanks averaged, mean of 2 arrays, mostly near background
Reference: not given
Reading: higher = stronger binding
Construct (chain): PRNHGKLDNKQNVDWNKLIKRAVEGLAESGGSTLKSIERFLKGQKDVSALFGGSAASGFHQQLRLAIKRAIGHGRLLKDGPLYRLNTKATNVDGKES
The E-score of `ACGGGAAT` is reported as -0.0533.
With `AATAGAGG` the E-score was -0.0788.
`AGAGAATA` gave an E-score of 0.0554.
`GCTCGTAA` gave an E-score of -0.0697.
With `AAAGCAGT` the E-score was 0.153.
For `CCCCCAGA`, the E-score was -0.0592.
`AGCGGAAT` gave an E-score of 0.0329.
`ACGAAATC` gave an E-score of 0.0672.
The E-score of `AAGGTCGT` is reported as -0.0996.
`GACGTTCA` has an E-score of -0.249.
`GCTAGTCC` has an E-score of -0.147.
`ACGCACGG` gave an E-score of 0.158.
The E-score of `GACTCCTA` is reported as -0.216.
`AGAGCGCT` has an E-score of -0.136.
For `ATTAATGC`, the E-score was -0.021.
`ACCTTGGG` has an E-score of 0.0767.
`ACAAAGTC` gave an E-score of -0.0619.
With `TTCCAGAA` the E-score was 0.0102.
`CCGAGACC` has an E-score of 0.129.
The E-score of `ATCAGTGC` is reported as 0.0663.
The E-score of `CAGAAGTA` is reported as 0.00059.

Set 3
Target: Probable WRKY transcription factor 11, DNA-binding domain (WRKY11, Arabidopsis thaliana, UniProt Q9SV15, residues 228-325)
Technique: DNA-protein interaction ELISA
Form: double-stranded DNA, one strand shown
Matrix: in vitro, bacterial lysate
Concentration: not given
Setting: whole dsDNA probe, crude lysate protein
Reference: highest signal in screen
Reading: higher = stronger binding
Target sequence (chain): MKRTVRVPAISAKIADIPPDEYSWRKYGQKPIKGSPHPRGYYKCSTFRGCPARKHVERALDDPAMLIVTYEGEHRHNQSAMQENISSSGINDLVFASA
For `AAAAAATGGGGCTCTGGCCCACCGTAAAAA`, the relative absorbance was 13.5 % of maximum.
For `AAAAAAACTCACGGCGTCACTATGGTAAAA`, the relative absorbance was 14.4 % of maximum.
`AAAAAACTTGCTCCTCCGTTTTACTCAAAA` gave a relative absorbance of 16.7 % of maximum.
The relative absorbance of `AAAAAATTCGTATCTGTACCCTATGCAAAA` is reported as 17 % of maximum.
For `AAAAAAGGACGTCTTCGGTATGAGTGAAAA`, the relative absorbance was 20.2 % of maximum.
`AAAAAAGTTCGTGCTTAACCCAGTTTAAAA` gave a relative absorbance of 17.9 % of maximum.
For `AAAAAAGTAGGTGCTGATGCTGGCCGAAAA`, the relative absorbance was 16.7 % of maximum.
With `AAAAAAGAAATACCAGAAACTATCATAAAA` the relative absorbance was 15.8 % of maximum.
The relative absorbance of `AAAAAACTGGATGCGCTCACCAGTTAAAAA` is reported as 13 % of maximum.
With `AAAAAATTGCATTCCACCCTTAGGTTAAAA` the relative absorbance was 12.1 % of maximum.
`AAAAAAAAGAGCCTGGGGGTTCGCATAAAA` has a relative absorbance of 17.6 % of maximum.
For `AAAAAAAGTTCGCGGATTTCGGCCATAAAA`, the relative absorbance was 16.7 % of maximum.
For `AAAAAATGTGGTTACGGCCTCGATGAAAAA`, the relative absorbance was 14.1 % of maximum.

Set 4
Target: RNA binding protein fox-1 homolog 2, RRM domain, GST-SBP tag (RBFOX2, Homo sapiens, UniProt O43251-10, residues 100-194)
Technique: RNA Bind-n-Seq
Form: RNA
Matrix: in vitro
Concentration: 365 nM
Setting: natural RNA segment, single round, ends assumed
Reference: no-protein control
Reading: higher = stronger binding
All sequences stand within: GGGAGUUCUACAGUCCGACGAUC … UGGAAUUCUCGGGUGCCAA
Target sequence (chain): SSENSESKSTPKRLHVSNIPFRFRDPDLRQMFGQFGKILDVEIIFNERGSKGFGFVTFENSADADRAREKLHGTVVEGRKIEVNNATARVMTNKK
For `ACAAUUGGCCUUUCUGAGCUGAUUUUUCCAUCUUUUGUAAUUAUCUUUAUUAAAAAAUUGUACUUGGAUCGUUUUCUGUCUGUUUAUUAUGAAAGCUUGUUUCCAAGUCA`, “RBNS enrichment (R)” read 0.907.
`GGAGUCGGAGCCCUGGGUCCGAAUGGACCCGCCUGCGGUCUGCAUCAGCCUCUGGGAAACCACAGCAGUGAUGCCAGCUGGGCACGUCAGGACCUCCCCACACACCCACA` — result for “RBNS enrichment (R)”: 0.725.
Under “RBNS enrichment (R)”, `CUAGGUGAGUGUGCCAAGCUCAGGAUUCCAACUGGUGCCUCUGAGCUUCCCAAUCAAUACUUCCUGGAGCCAGCCCCACCCACCCCUGAGAACAGAGGUCAGACACAGCU` is recorded as 0.353.
For `UUCCCUUCCCUCACCCCUGACAUGUACCCCCUUUCCCUUCUGGCUGUUCCCCUGCUCUGUUGCCUCUCUAAGGUAACAUUUAUAGAAGAAAUGGAAUGAAUCUCCAAGGC`, “RBNS enrichment (R)” read 0.589.
`CCACAAAGCUAAAAGACUGCGCCCCAUUCUGAAGAAGGCACAAGUACAUGGGAGAGUCCUGCCUUACUUCUCCUGGACUGGCUUCCUCUUUGAGAAAAUGCACAAAGCUC` — result for “RBNS enrichment (R)”: 0.684.
Under “RBNS enrichment (R)”, `UUCUAUCCCAAGGAGAGUGUGACUGGGUCACACUCACAGUUGCUGUUACUGAAAUGAACUCUGCAGGAAUGGUGUUUCAGCGGGUGCGGCUUGACUGGUUUGAGUUCCCG` is recorded as 0.714.
Under “RBNS enrichment (R)”, `GCAUUCCAGGUAACAGGUGUGUAUGUAAAGUUAAAAAUAGGCUUUUUAGGAACUCACUCUUUAGAUAUUUACAUCCAGCUUCUCAUGUUAAAUAUUUGUCCUUAAAGGGU` is recorded as 0.914.
Under “RBNS enrichment (R)”, `GCGCCCCCCCCAUUCUUGUUCAGAUUAAGAGUUGCCAAAAUACCUUCUGAACUACACUGCAUUGUUGUGCCGAGAACACCGAGCACUGAACUUUGCAAAGACCUUCGUCU` is recorded as 0.391.
